Measurements collected from several papers.
Parts stem from different laboratories: compare values within a part only. Substitutions count along the parent as printed.

Study 1
Target: Prothrombin, mature alpha-thrombin (F2, Homo sapiens, UniProt P00734)
Technique: aptamer microarray, sandwich
Molecule type: DNA with 2'F-ANA
Sample: in vitro
Tested at: 200 nM
Notes: whole 15-mer aptamer, many near background
Added: Cy3 exosite-II aptamer, 400 nM
Reading: higher = stronger binding
Quantity: mean fluorescence intensity
Strand: GGTTGGTGTGGTTGG
2'F-ANA at 1 4 5 14 15: 43.1 a.u.
2'F-ANA at 1 2 3 5 6 8 9 11: 79.5 a.u.
2'F-ANA at 2 3 5 6 9 10 11 14: 55.7 a.u.
2'F-ANA at 2 4 6 7 9 10 11 12 14: 72.5 a.u.
2'F-ANA at 13 14: 247 a.u.
2'F-ANA at 1 2 3 4 5 6 7 8 10 11: 55 a.u.
2'F-ANA at 2 3 4 5 6 8 10 13 15: 49.9 a.u.
2'F-ANA at 2 3 4 6 7 8 9 11 12 14 15: 257 a.u.
2'F-ANA at 1 2 10 12: 66 a.u.
2'F-ANA at 4 6 7 9 10 11 12 14: 63.8 a.u.
2'F-ANA at 1 3 5 8 9 11 12 13 15: 80.6 a.u.
2'F-ANA at 1 2 4 11 13 14: 59.5 a.u.
2'F-ANA at 1 3 4 6 8 9 15: 216 a.u.
2'F-ANA at 4 5 6 7 8 12 13: 107 a.u.
2'F-ANA at 1 4 6 10 11 13 14: 45.4 a.u.
2'F-ANA at 2 3 4 5 6 7 9 11 15: 63.5 a.u.

Study 2
Target: RNA binding protein fox-1 homolog 2, RRM domain, GST-SBP tag (RBFOX2, Homo sapiens, UniProt O43251-10, residues 100-194)
Technique: RNA Bind-n-Seq
Molecule type: RNA
Sample: in vitro
Tested at: 365 nM
Notes: natural RNA segment, single round, ends assumed
Baseline: no-protein control
Reading: higher = stronger binding
Quantity: RBNS enrichment (R)
All sequences stand within: GGGAGUUCUACAGUCCGACGAUC … UGGAAUUCUCGGGUGCCAA
Residues (chain): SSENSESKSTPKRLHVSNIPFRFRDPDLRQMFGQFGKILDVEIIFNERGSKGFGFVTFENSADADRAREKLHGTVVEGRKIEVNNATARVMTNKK
UGCUCAGUUAGUUGUUGGUUAUUUAAAGCACACUCAGUUUGCACUCAUUUCCCCUAAACAACUGGCACAGCAGGUUGACCAUCCUUAAACUGCUGUGAAACAUGCCACGU: 0.248
AGAUGUUCCGCAAAGGAUGCUGAUCUACCAGGUUUAGCUCAACCUGGAAUAGCUGACUACCCAGGGAGCCACCCAGAUGGGGAAUCCAGCUUCCUUCUUCACCCGCCCCC: 0.239
UACAGUUAUGUGAAACUGUCCACAAAAAGUCAUGGCAAUAAUGGUGUAAAGAAAAUAGUUUCUUGGGUAUUUGUAACGUACAAACUAUCAUAAAAAUUCUCCUCUUUCGC: 0.408
GGGCAGGGAGGGUACAGCCAGGCUCACAGCACUGAGAGUCUCAACCAGCUAAGCUAAAUUGCAAGCUAGAUGCCUCCUGCCCCUGCCCUCAGCUGCCCAGGCCCCAGCAU: 0.892
UAUGAAAAACCCAUUUAGUACAGAUUUUCAUAGUGUAGAGACUGAUUUUGCCCUGUAACUGCAUGUACAUGGUGUAUUUUGCCAUUAAGUCUUUUAUUUGUGGCAAUUUU: 2.65
CCACCUCCAGCAUUGCCAGCCUCAUCUGACAGAGAUGGAGCCCUUCUUCCCAUGCCCUGCCUCAGUAUCCCCAGAACUUGUGGCAGACAUUCACAGGUGCACGCAUAUAU: 1.28
UGUGUUCCUGGAGAAGGCAUUCCAGGGUUGAAUCUUGUCCCAGCCUCAGCCUGGGACACCUAGGUGGAGAGAGUGGUCUCCGCUCUGAAUUGGAUCCAGGGGACCUGGGC: 0.455
UCACUGGAACCUCCCUGGGCCUGUCUCAGAUUGGGAUUAACAUAAAAGAGUGGAACUAUCCAAAAGAGACAGGGAGAAAUAAAUAAAUUGCCUCCCUUCCUCCGCUCCCC: 0.435
UGAGGCUACAAACAAUCUAUGGUUCCAAAUCCUAUGUGCUUACUGCCGUCUUCUCUUAGAAGGGGAUGCAGUACUGUACAAAGAUUGAGCUGGAUGUCGCAUUGCAUGUU: 3.56
GUGAUCAGGGAGUGUGUCCAACGUAGCCCCCUGGCCUGUGCAAGCCCUGACUCCCUCAUGGUGCCUCGGAGAGUGGGGAGCAUAUUGGGCUGGGGUAAGCACUAGACCCA: 0.374
UCCUAUCCAACCGUACUAACGUGGACACCCUACACCUCCCCUCAGAACUUCAAAAGGGCAAGAUCUUUUUUCCUUCACUUAUUGCUGAAACCAAGAGCACAAUUCCCAUU: 0.43
GAGUCCCCCUCACCCUGGCCCUGUUCCACCAUGGUUAUCUGGGUAUUGGGGAAUGGAAACUUUGGGGGAGUGACUUUUUAAAGAGACACUUAUAAUUUCUACUACUGCAC: 0.303

Study 3
Target: Interferon regulatory factor 3, full length, phosphomimetic (IRF3, Homo sapiens, UniProt Q14653, residues 1-427, S386D/S396D/S398D/S402D/T404D/S405D)
UniProt Q14653, sequence (whole entry, unmodified, looked up): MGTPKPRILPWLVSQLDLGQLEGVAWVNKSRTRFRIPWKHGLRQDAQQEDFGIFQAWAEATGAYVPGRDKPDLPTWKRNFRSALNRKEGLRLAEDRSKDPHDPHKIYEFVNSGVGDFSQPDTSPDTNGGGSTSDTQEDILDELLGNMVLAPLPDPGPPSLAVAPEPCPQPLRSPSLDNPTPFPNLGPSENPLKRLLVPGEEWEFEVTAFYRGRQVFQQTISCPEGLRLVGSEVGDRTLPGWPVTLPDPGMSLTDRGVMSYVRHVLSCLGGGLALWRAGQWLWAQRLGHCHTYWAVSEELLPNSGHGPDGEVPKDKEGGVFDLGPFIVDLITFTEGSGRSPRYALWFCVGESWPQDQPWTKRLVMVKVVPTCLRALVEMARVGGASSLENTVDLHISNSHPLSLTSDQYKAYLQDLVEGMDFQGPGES
Technique: protein-binding microarray
Molecule type: double-stranded DNA, one strand shown
Sample: in vitro
Tested at: 2540 nM top
Notes: 60-bp whole probe
Added: salmon DNA 0.4 mg/ml
Baseline: random background probes
Reading: higher = stronger binding
Quantity: fitted relative affinity
All sequences stand within: GCCTAGCAC … GTCTTGATTCGCTTGACGCTGCTG
GTAGGTTTCGGTATCGGTTAGTGCTAG: 8.83 z-score
CTGGATCTCAGACTGTGTCCGTGCTAG: -0.123 z-score
GACGATATCGGCTATCGAGACGTGCTA: -0.144 z-score
TTTGGACTGCTACTGCTTTAGTGCTAG: -0.639 z-score
GTGCCTTTTTTTTTTTTTCTGTGCTAG: 2.82 z-score
GACGAACTGGGGACTGGAGAAGTGCTA: -0.621 z-score
CAATACCTTATGAATGTGTTGTGCTAG: 0.832 z-score
TTAGGACTGGACTTTCTGTTAGTGCTA: 0.142 z-score
TAAGGTATCGACTATCGGTTAGTGCTA: 0.453 z-score
AGATGTGTCTTAAATAGGGCAGTGCTA: 0.22 z-score
GACGGACTGCTCTTCCTGACGTGCTAG: -0.388 z-score
TTAGGTATCGCTATCGGTTAGTGCTAG: 2.71 z-score
AAAGTTTTTCATTTTTTTTCGTGCTAG: 1.15 z-score
TCTCTTCTGCTTCCTCAGGACGTGCTA: 0.807 z-score
GACGAGATCGGGTTTCGAGACGTGCTA: 1.11 z-score
TTAGATCTCAGCCTGGATTAGTGCTAG: -0.332 z-score
GGCATTTTCGGGTAGATGGCCGTGCTA: 1.14 z-score
GACGGTTTCGGCATCGGGACGTGCTAG: 3.59 z-score
TCATCTTTTCATTTTCTACTGTGCTAG: 2.41 z-score
TTTTGTTTTTCATTATTGTCGTGCTAG: 4.16 z-score
TCACTCTTCTTGCATCTGACTGTGCTA: 1.19 z-score
TATGTTGTCCAGGCTGGTCTCGTGCTA: -0.415 z-score
TTAGAGTTCGGGACTGGATTAGTGCTA: -0.554 z-score
TTAGGTCTTGGTTTCGGTTAGTGCTAG: 4.36 z-score
GACGAACTGCTACTGCTGACGTGCTAG: -0.386 z-score

Study 4
Target: ABI1, truncated, D143A, DHFR fusion (Arabidopsis thaliana)
Technique: DHFR PCA, deep sequencing
Sample: yeast
Notes: methotrexate growth selection, single substitutions
Added: (+)-ABA 0 µM
Baseline: wild-type fitted maximum
Reading: higher = stronger binding
Quantity: relative binding score
Parent: PYL1, truncated, DHFR fusion (Arabidopsis thaliana); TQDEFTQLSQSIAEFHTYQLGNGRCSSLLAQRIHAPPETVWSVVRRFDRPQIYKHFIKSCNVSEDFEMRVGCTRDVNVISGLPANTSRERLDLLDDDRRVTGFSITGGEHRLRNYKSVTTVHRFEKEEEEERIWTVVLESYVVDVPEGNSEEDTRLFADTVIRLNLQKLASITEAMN
K168T: 2.43%
E64V: 7.63%
E129S: 31.9%
L138V: 5.84%
M176V: 5.88%
T135Y: -2.79%
G107P: -5.63%
K126C: 50.3%
N165I: 0.153%
L164C: 14.6%
V143R: -2%
R24S: 5.92%
Y53T: -2.84%
S59L: -0.471%
R123M: 4.36%
E14H: 3.22%
D48V: 2.88%
